{"data": "Published values from different studies", "SNU13": "SNU13 1-128 (Homo sapiens, UniProt P55769)", "lysM 1-142": "lysM 1-142 (Sulfolobus solfataricus, UniProt Q980W9)", "abrB full length assumed": "abrB full length assumed (Bacillus licheniformis, UniProt Q65PI4)", "T1": "NR1I2/RXRA (Homo sapiens); chain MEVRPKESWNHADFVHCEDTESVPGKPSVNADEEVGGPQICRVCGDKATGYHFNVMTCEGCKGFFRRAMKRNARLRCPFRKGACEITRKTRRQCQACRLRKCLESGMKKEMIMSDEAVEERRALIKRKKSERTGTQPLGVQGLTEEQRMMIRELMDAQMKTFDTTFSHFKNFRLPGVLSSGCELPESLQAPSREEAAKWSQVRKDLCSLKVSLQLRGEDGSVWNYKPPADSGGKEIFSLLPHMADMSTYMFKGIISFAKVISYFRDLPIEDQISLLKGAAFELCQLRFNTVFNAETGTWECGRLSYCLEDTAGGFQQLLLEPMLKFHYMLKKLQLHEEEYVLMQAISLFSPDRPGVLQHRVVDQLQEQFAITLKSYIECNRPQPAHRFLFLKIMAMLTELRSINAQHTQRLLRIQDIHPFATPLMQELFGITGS; chain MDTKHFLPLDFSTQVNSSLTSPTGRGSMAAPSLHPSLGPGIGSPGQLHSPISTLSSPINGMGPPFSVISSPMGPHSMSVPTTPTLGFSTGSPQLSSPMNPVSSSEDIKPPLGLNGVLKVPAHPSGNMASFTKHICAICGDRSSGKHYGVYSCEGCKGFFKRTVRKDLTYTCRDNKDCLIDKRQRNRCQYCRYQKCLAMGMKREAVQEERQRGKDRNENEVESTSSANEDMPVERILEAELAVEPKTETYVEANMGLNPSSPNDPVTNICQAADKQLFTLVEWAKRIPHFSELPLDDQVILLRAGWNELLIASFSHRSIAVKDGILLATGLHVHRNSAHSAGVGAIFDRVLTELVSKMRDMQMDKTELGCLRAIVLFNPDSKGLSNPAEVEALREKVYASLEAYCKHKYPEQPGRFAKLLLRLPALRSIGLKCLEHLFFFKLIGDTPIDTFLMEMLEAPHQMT", "B1": "UGT1A9 (Homo sapiens, UniProt O60656); chain GKLLVVPMDGSHWFTMRSVVEKLILRGHEVVVVMPEVSWQLGRSLNCTVKTYSTSYTLEDLDREFKAFAHAQWKAQVRSIYSLLMGSYNDIFDLFFSNCRSLFKDKKLVEYLKESSFDAVFLDPFDNCGLIVAKYFSLPSVVFARGILCHYLEEGAQCPAPLSYVPRILLGFSDAMTFKERVRNHIMHLEEHLLCHRFFKNALEIASEILQTPVTEYDLYSHTSIWLLRTDFVLDYPKPVMPNMIFIGGINCHQGKPLPMEFEAYINASGEHGIVVFSLGSMVSEIPEKKAMAIADALGKIPQTVLWRYTGTRPSNLANNTILVKWLPQNDLLGHPMTRAFITHAGSHGVYESICNGVPMVMMPLFGDQMDNAKRMETKGAGVTLNVLEMTSEDLENALKAVINDKSYKENIMRLSSLHKDRPVEPLDLAVFWVEFVMRHKGAPHLRPAAHDLTWYQYHSLDVIGFLLAVVLTVAFITFKCCAYGYRKCLGKKGRVKKAHKSKTH", "note": "Each line is one published result; not all experiments were run side by side. ± marks the error that the study gave. Where no end group is shown, it is not given here. [ ]: non-standard residue; d: D form.", "UniProt Q980W9, sequence (whole entry, looked up)": "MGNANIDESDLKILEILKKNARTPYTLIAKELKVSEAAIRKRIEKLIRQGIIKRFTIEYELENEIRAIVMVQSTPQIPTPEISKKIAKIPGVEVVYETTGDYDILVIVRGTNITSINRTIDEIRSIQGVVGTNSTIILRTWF", "UniProt P55769, sequence (whole entry, looked up)": "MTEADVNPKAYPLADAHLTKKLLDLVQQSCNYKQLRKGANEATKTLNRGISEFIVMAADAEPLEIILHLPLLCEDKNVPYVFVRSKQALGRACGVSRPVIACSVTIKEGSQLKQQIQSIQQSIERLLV", "UniProt Q1LUM3, sequence (whole entry, looked up)": "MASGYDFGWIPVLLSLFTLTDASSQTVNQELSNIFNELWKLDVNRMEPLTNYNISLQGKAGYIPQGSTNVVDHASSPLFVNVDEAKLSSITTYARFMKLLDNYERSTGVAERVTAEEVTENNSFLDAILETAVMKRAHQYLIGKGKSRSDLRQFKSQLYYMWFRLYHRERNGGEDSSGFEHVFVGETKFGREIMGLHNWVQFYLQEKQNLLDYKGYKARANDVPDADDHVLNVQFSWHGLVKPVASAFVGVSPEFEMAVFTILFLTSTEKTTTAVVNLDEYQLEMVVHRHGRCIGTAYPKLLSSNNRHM", "UniProt Q01130, sequence (whole entry, looked up)": "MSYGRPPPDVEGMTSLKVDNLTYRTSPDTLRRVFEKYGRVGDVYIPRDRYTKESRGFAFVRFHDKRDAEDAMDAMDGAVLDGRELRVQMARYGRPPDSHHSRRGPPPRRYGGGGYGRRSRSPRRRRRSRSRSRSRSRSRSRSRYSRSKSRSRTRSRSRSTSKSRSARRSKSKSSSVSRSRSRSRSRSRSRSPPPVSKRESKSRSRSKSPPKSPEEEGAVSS"}
{"Substance": "GAGUUGAGUUGAGUUGAGUUGAGUUGAGUUGAGUUGAGUUGAGUUGAGUUGAGUU (ssRNA; single strand)", "tested on": "mtrB full length assumed K37A (Bacillus subtilis, UniProt P19466)", "assay": "filter binding", "conditions": "added: L-tryptophan 1 mM", "endpoint": "Kd", "value": "130 ± 20 nM"}
{"Substance": "AACTTGCTGAC (dsDNA)", "tested on": "T1, NR1I2/RXRA (Homo sapiens)", "assay": "fluorescence anisotropy competition", "system": "double-stranded DNA, one strand shown", "conditions": "10 µM, added: DR3 FAM", "endpoint": "binding", "value": "no binding"}
{"Substance": "CTCAACAACTAACTACCATCCGGACCAGAAGAGTCATCATGG (dsDNA; blunt, 5mC both strands position 21)", "tested on": "MECP2 full length assumed (Homo sapiens, UniProt P51608)", "assay": "MST", "system": "double-stranded DNA, one strand shown", "endpoint": "binding", "value": "binds"}
{"Substance": "GGGAUCGUCAGGUGGGAUAAUCCUUACCUGUUCCUCCUCCGGAGGGCAGAUUAGAACAUGGUGAUUGGAGAUGCAUGAAACGUGAUUAACGUCUCUGCGUAAUCAGGACUUGCAACACCCUGAUUGCUCCUGUCUGAUU (structured RNA)", "tested on": "SNU13", "assay": "EMSA", "conditions": "added: Mg2+ 1.5 mM", "endpoint": "binding", "value": "no binding"}
{"Substance": "[dL]VIA (D-Leu1)", "tested on": "PC-12", "assay": "protection from Aβ1–42 toxicity, MTT", "conditions": "concentration not given, 6 h, Aβ to peptide ratio 1:10, added: Aβ1–42 2 µM", "scale": "reference: untreated cells", "endpoint": "cell viability", "value": "70.6%"}
{"Substance": "B1 (UGT1A9)", "tested on": "Oc1ccc(C2CCCC2)cc1", "assay": "steady-state kinetics", "conditions": "pH 7.4, 37 °C", "endpoint": "Vmax/Km", "value": "60 µL/min/mg"}
{"Substance": "ACATAATGTCACCAGCAGGTAAAAAGTAACTTTGGTTCTGGACAATATGGCCGATGTGTTGAAAACGCAACACATCGGCCTTTTGTGGCGTCTGCGGCCTGCATAATGGAAAAATAGTGAGTTCATTCATTTGAGTAATTGGATTAATCGTTTATATCTAGCAGACAAGAAAACATTTTTTTAATTTAATAAATAGGTAATACGCCAATGGTTAAG (dsDNA (Dickeya zeae); blunt)", "tested on": "ihfA 1-99 (Dickeya zeae, UniProt D2BZB1)", "assay": "EMSA", "system": "double-stranded DNA, one strand shown", "endpoint": "binding", "value": "binds"}
{"Substance": "CTATTTCTCCTGGTAAGGAATCATCTGGTACATTTACATCATTACCACATATTGGACATTTTAATAGTACCATGATGGATCGAATAGAAATATAAAGTAAGCAGTTGAAAAGCTTTTATGAAATAAAAGGTTCGAAATTAGTACCAAACTCTAAGCACTATAGTACTGTTTGTACTTATAACGCCCTG (dsDNA)", "tested on": "lysM 1-142", "assay": "EMSA", "system": "double-stranded DNA, one strand shown", "endpoint": "binding", "value": "binds"}
{"Substance": "GGGAUGUUAAAGAUGAGCGGGUGGCAGCGACAGAGCCAAAAUCAGAGCUGGAACCUGAGGAGAGAGUGUUCAAGAAGGAAGUGUAUCUUCAUACAUCACCACACCUG (structured RNA (Homo sapiens); stem-loop nt 72-91)", "tested on": "endouc 23-309 (Danio rerio, UniProt Q1LUM3)", "assay": "competition", "endpoint": "binding", "value": "binds"}
{"Substance": "AAATCGTATCGGCTCCAAACGATTTTGAAAGCTGATTTACTTGTAAAATCATCATGATCTTTCACCTCTTGTCTGCTATTTTAAGTGTAGCCTATCACCGCGCAGTCAGCAAACAATTAAGTGAAGTCTGGAAGATTTTAGCCAAAGAAAAAGACAGATTGAAAAAAATAGTGTATGATCATTATAAGGAGAGTTAAGAACATGAATGAGTTTACACATTTTAATGAACAAGGCAGAGCCA (dsDNA)", "tested on": "abrB full length assumed", "assay": "EMSA", "system": "double-stranded DNA, one strand shown", "endpoint": "binding", "value": "binds"}
{"Substance": "GATTGCAGAGATACTACAAAGGTATTACAAAAAAATAGGCATAGAGAATGTGAATCAGTTGATACTAACTACTATAAAATAGTTCGTATGTCGAACCTTTCTTTACCGAATTCATTATATATCCTTTACCTTAATTCTCACTTGTATGATAAAAGTAGGTATTTTAGATTCGACGTTAAGAGAAGGAG (dsDNA)", "tested on": "lysM 1-142", "assay": "Cu-OP in-gel footprinting", "system": "double-stranded DNA, one strand shown", "endpoint": "binding", "value": "binds"}
{"Substance": "GGACATATTTTTGTTGCCTACGGAATGAAAGACTCGCATCGGTCATCAAATACGCTCCTGATGTGAAAATTTTAAATCTATCTTACGATTACGGTAAACTAGGCGGTCTGACCATTTTACAGAACGTAGTGTTCTGCTCAAGACTTCACACAGTCCGAAAATTCTTGGGCCGGTGATCTGTCTGTCGCCTGCAAATATGGGGTTTTCAAAGGATTTTAACAGAGGACTGGTCATTATGATAACCGCTATGAAAACCTTAT (dsDNA)", "tested on": "abrB full length assumed", "assay": "EMSA", "system": "double-stranded DNA, one strand shown", "endpoint": "binding", "value": "binds"}
{"Substance": "UUUCAGCUCCGGUCACGCUC (ssRNA; m5C at position 10)", "tested on": "SRSF2 1-115 (Homo sapiens, UniProt Q01130)", "assay": "NanoBRET competition", "conditions": "apparent, not purified", "endpoint": "Ki", "value": "22.9 nM"}
{"Substance": "GGGAUCGUCAGGUGGGAUAAUCCUUACCUGUUCCUCCUCCGGAGGGCAGAUUAGAACAUGAUGAUUGGAGAUGCAUGAAACGUGAUUAACGUCUCUGCGUAAUCAGGACUUGCAACACCCUGAUUGCUCCUGUCUGAUU (structured RNA)", "tested on": "SNU13", "assay": "EMSA supershift", "endpoint": "binding", "value": "binds"}
{"Substance": "TTTCAGATAGCATAACGCCTGCTCCTCTCCAGTCACTTTAAAAATGTATTTGAAATACATCTTTAAAGGTGCAATAAGATCTTTTTTAAATAGGACTGTTACTTTTGATTAAAGATGTATTTTAGATACATCTTTATACTAGACTTTTAATGGAATTAAAGCAATATTATCAATGAATGTTTTATATTTTTGTAACAATTTCCGCTCGACCCTCATAATCGAAGGCAAATGTGATAAGATAATGGAAACTTGTTTGATTGAGGTCA (dsDNA)", "tested on": "abrB full length assumed", "assay": "EMSA", "system": "double-stranded DNA, one strand shown", "endpoint": "binding", "value": "binds"}
{"Substance": "Insulin human", "system": "rat, olfactory bulb", "conditions": "intranasal, 20 µg per nostril, 120 min", "endpoint": "brain concentration", "value": "39.4 ± 6.5 pg/mg tissue"}
{"note": "Some of these lines once more:"}
{"Substance": "B1 (UGT1A9)", "tested on": "Oc1ccc(C2CCCC2)cc1", "assay": "steady-state kinetics", "conditions": "pH 7.4, 37 °C", "endpoint": "Vmax/Km", "value": "60 µL/min/mg"}
{"Substance": "ACATAATGTCACCAGCAGGTAAAAAGTAACTTTGGTTCTGGACAATATGGCCGATGTGTTGAAAACGCAACACATCGGCCTTTTGTGGCGTCTGCGGCCTGCATAATGGAAAAATAGTGAGTTCATTCATTTGAGTAATTGGATTAATCGTTTATATCTAGCAGACAAGAAAACATTTTTTTAATTTAATAAATAGGTAATACGCCAATGGTTAAG (dsDNA (Dickeya zeae); blunt)", "tested on": "ihfA 1-99 (Dickeya zeae, UniProt D2BZB1)", "assay": "EMSA", "system": "double-stranded DNA, one strand shown", "endpoint": "binding", "value": "binds"}
{"Substance": "CTATTTCTCCTGGTAAGGAATCATCTGGTACATTTACATCATTACCACATATTGGACATTTTAATAGTACCATGATGGATCGAATAGAAATATAAAGTAAGCAGTTGAAAAGCTTTTATGAAATAAAAGGTTCGAAATTAGTACCAAACTCTAAGCACTATAGTACTGTTTGTACTTATAACGCCCTG (dsDNA)", "tested on": "lysM 1-142", "assay": "EMSA", "system": "double-stranded DNA, one strand shown", "endpoint": "binding", "value": "binds"}
